Measurements from different studies.
Parts stem from different laboratories: compare values within a part only. Substitutions count along the parent as printed.

Sample 1 — method: RNA Bind-n-Seq; molecule type: RNA; medium: in vitro; tested at: 200 nM; setting: whole 134-nt RNA, ends assumed; added: 150 mM KCl; relative to: input library; direction: higher = stronger binding; endpoint: log2 enrichment
Target: Fragile X messenger ribonucleoprotein 1, C-terminal low-complexity region (Fmr1, Mus musculus, UniProt P35922)
All sequences stand within: GGGAGUUCUACAGUCCGACGAUC … UGGAAUUCUCGGGUGUCAAGG
Oligonucleotide = CUCAAGUCCUGUGCUACACAUCGUAUGUACCGAAUCGGUUGGGGUUGGGGUUGGAAAGUAUUAUGUUACGCCGUUCGGAUCUGCACUUCC; result = 0.0158
Oligonucleotide = CAAGUCCUGUGCUACACAUCGUAUGUACCGAAUCGGGUGGGAAAAAGGGAAAGGGAAAGUAUUAUGUUACGCCGUUCGGAUCUGCACUUC; result = 0.67
Oligonucleotide = CAAGUCCUGUGCUACACAUCGUAUGUACCGAAUCGGAAAGGUUUUUGGAAAAAGGAAAGUAUUAUGUUACGCCGUUCGGAUCUGCACUUC; result = -0.892
Oligonucleotide = AAGUCCUGUGCUACACAUCGUAUGUACCGAAUCGGGAAAAAGGAAAAAGGAAAAAGGAAAGUAUUAUGUUACGCCGUUCGGAUCUGCACU; result = -0.829
Oligonucleotide = UGGGAGGUGGAUUUUGUUUAUUUUUUUAGCUCAUUUCCAGGGGUGGGAAUUUUUUUUUUAUAUGUGUCAUGAAUAAAGUUGUUUUUGAAA; result = 0.365
Oligonucleotide = UCCUGUGCUACACAUCGUAUGUACCGAAUCAAAUUUUUAAACCCCCAAAUUUUUUUAAAAAAGUAUUAUGUUACGCCGUUCGGAUCUGCA; result = 0.606
Oligonucleotide = CUGUGCUACACAUCGUAUGUACCGAAUCGGGGUUUUUGGGGUUUUUGGGGUUUUUUUGGGGAAAGUAUUAUGUUACGCCGUUCGGAUCUG; result = 0.0992
Oligonucleotide = UCCUGUGCUACACAUCGUAUGUACCGAAUCGGGGAAAGGGGUUUUUUUGGGGUUUGGGGAAAGUAUUAUGUUACGCCGUUCGGAUCUGCA; result = 0.9

Sample 2 — method: EMSA with sequencing; molecule type: double-stranded DNA, one strand shown; medium: in vitro; tested at: 10 and 20 nM; relative to: negative control set to 0; direction: higher = stronger binding; endpoint: normalised bound fraction
Target: Hepatocyte nuclear factor 3-alpha (Foxa1, Mus musculus, UniProt P35582, residues 1-468, full length assumed)
Setting: whole designed probe, mean of two concentrations, ends assumed
All sequences stand within: GTGAGCGGTGCCCATTGATGGGGAAC … TTTCACTGGGATCGTGGGGAC
Residues (chain): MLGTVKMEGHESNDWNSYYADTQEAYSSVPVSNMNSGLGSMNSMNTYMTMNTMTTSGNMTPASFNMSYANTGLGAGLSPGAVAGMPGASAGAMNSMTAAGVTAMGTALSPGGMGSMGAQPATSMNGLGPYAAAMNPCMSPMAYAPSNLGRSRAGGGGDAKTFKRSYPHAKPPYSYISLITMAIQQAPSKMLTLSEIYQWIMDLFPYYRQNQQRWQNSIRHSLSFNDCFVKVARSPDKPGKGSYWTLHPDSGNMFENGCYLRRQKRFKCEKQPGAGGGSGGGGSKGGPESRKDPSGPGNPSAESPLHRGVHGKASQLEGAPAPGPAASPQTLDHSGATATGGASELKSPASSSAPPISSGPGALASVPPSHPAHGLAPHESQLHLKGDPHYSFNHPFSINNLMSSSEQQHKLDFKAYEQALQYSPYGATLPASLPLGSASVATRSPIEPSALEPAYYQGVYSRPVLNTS
Oligonucleotide = TGTTTTATGCAAGGTCTTAAAAGGGAAAATTTTTCCAAGTTACTGTTTATACCTGTGGTATGATAGTAATTACTATCATAATGTTTACTTTATGTTTACTTTGTAAAATGTTTACTTTTGTAAAATGTAGAACTAAAGAGTTTTTGAAGCTTATATTTTCTCTTTCAATCTAAACTTGCATGCTTCCATTTTA; result = 0.549 ratio
Oligonucleotide = GCACCACTCAGCCCCTCCTAGTCCGCTGGAGAAAGTGGCTGAGGGGGTGGTGGGGGATAATTGCATTTCCAAAGTCCGGGCAATCAGCCAATGTAAACAGGCACCTGCATCACTGTGTGGGCTCTCTAGGCAACAGGTAAAATACATCAAATACACACAATTTCCTGACATTCCAATGCATTTCTGCGTGAGC; result = 0.249 ratio
Oligonucleotide = ATCCACGAACCTGGCCCTGTCTGGTAACCACAGTGAACCATCGCAAGATACAGCACTATGTGCCCAGTTGGGCTGGTAATGACTCACAAATGTGTCAACACTGGCACATCCTCAGGGACACGGAAGTGTACTTGTTTTTGGAGAGGGACTAGACCTTCATCCTTGAGGTGAAGAAGATTTTCTCTCCAGGGTG; result = 0.0395 ratio
Oligonucleotide = CCTAGTTAAGAAGAGGAAGATGGAAGTACTAATACAAAGTGTAGCTAAAAGACATTGCTGGGCTTTAACTTCTGCCTCCCATTCTCTGTTAAGTAATCTAGAAAATGGAGGCAAACAAGCTCCCTAGGTAGTGCTAAGCCACACGTTCTGACTGTGAGAAAGAATCTCTTGTGGAGAAAATGAAATAAACATA; result = 0.0624 ratio
Oligonucleotide = CAGCCTGCCCTTTTTCTGAAATATTAGTAATTTTCTTTTTCTTTTTCCTTTTTTTTTTTTTTTTTGGACAATTAAGGGAGACTTGTCCAACTATGTAATCTCAGAAAGCACTCAAGCAACAATGCCCTCGTAATTAGCAGCGGGCAGGCCGGCGTCTGGGCTGGCCCGTCAGGCGCGGCGTCAGCTGAAAGGG; result = -0.0596 ratio
Oligonucleotide = CTAAGAGTTGGCAGATCATGCAACAGCCCGGGTCCCTGAATGGCCATGTAGAACATGATCTCTACCCTGACCTATTTTAGACAGTACAATTAAATAAACAAGCAGACTTTTGTAGTAGAAAATCCCTGGAATTTGGGGTTTATTTATTACTAAAGAATAGCTTTGCATCTGGCCCTTGTTTATCTGTCATTTA; result = 0.33 ratio
Oligonucleotide = GCATGAGCCGCATTGCCCAGCAAAAGCCTCTAAGTGGTGATTTGCTGTTTGGCCTGAGAGTAATTTGGAGGCTGTGGCTGAGTCAGCTTCTCTTGTTGACTGAGCTGATGTCACTTTTGAGCATCATTGTTCCATAATTCCTTATGAAACTCTTCTGAAGCACTGAGAACCATCGACGGATCATATCAGCATG; result = 0.016 ratio
Oligonucleotide = AAATCTAAGAATATTTTGTTTCAGGCTAGAAAGATATCTCTTTACTTGACTTTTTTCAGACCATGTTGGCCATTGTCTAATTATTTAGTACAAAGTAAACAGAAATAGAGCAGAGTAGAGCTCATTCTCCCCAAGTTGAAGCTTATCACACTCCAATGTGTGCCCTCTTAAAGCATAAAGCATGTCTCACTTT; result = 0.476 ratio

Sample 3 — method: protein-binding microarray; molecule type: double-stranded DNA, one strand shown; medium: in vitro; tested at: not given; direction: higher = stronger binding; endpoint: E-score
Target: Protein C-ets-1 (ETS1, Homo sapiens, UniProt P14921, residues 1-441, K379A, full length assumed)
Setting: k-mer, scored over probes, only values ≥0.25
Construct (chain): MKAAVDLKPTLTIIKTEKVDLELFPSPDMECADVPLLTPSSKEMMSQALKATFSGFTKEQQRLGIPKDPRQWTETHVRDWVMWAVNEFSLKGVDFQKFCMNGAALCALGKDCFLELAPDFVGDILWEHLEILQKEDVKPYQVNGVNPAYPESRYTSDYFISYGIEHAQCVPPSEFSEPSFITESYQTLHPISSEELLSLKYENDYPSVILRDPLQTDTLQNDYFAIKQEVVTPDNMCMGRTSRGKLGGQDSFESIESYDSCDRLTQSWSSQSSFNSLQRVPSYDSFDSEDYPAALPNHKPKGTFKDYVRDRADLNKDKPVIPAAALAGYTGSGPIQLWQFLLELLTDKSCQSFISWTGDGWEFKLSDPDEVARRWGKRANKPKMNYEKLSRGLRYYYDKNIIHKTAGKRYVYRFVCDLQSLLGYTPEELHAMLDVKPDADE
Oligonucleotide = ATCCGGCG; result = 0.287
Oligonucleotide = AACGCCGG; result = 0.33
Oligonucleotide = TACTACAA; result = 0.252
Oligonucleotide = ATGAACCG; result = 0.253
Oligonucleotide = CGGCCGGA; result = 0.263
Oligonucleotide = AGACCGGA; result = 0.333
Oligonucleotide = CGGTATTC; result = 0.277
Oligonucleotide = CCGGGATC; result = 0.344

Mixed results — starting sequence: viral docking peptide; KGVKRKLFAEDSS
Variant = KGVKRKLFAERSS [D11R]; target = CCNB1, cyclin fold, Cln2 fusion (human); assay = yeast growth competition, sequencing; test system = yeast; setting = strong parent motif; scale = relative to: not given, higher = stronger binding; endpoint = normalised enrichment score; result = 0.676

A few entries again (mixed results):
Variant = KGVKRKLFAERSS [D11R]; target = CCNB1, cyclin fold, Cln2 fusion (human); assay = yeast growth competition, sequencing; test system = yeast; setting = strong parent motif; scale = relative to: not given, higher = stronger binding; endpoint = normalised enrichment score; result = 0.676
